Measurements from different studies.
Compare with care: the assays were run in different laboratories.
Organism: Staphylococcus aureus

SMILES	test	test system	setting	MIC
CC[C@H](C)[C@H](NC(=O)[C@H](CC(C)C)NC(=O)[C@H](CCCNC(=N)N)NC(=O)[C@@H](N)CCCNC(=N)N)C(=O)N[C@@H](CCCNC(=N)N)C(=O)N[C@@H](CCCCN)C(=O)N[C@@H](CC(C)C)C(=O)N[C@@H](CCCCN)C(=O)NCC(=O)N[C@@H](CC(C)C)C(=O)N[C@@H](CCCCN)C(=O)N[C@@H](CCCCN)C(=O)N[C@@H](Cc1ccc(O)cc1)C(=O)N[C@@H](CC(C)C)C(=O)N[C@@H](Cc1ccc(O)cc1)C(=O)N[C@@H](Cc1ccccc1)C(=O)N[C@@H](CCCCN)C(=O)N[C@@H](CC(C)C)C(=O)N[C@@H](CCC(N)=O)C(=O)N[C@@H](CC(C)C)C(=O)N[C@@H](CC(C)C)C(=O)N[C@@H](CCCCN)C(=O)N[C@@H](CCCCN)C(N)=O	–	CCARM 3090, methicillin-resistant, Mueller-Hinton broth	24 h	8 µM
CCCCCCCC(=O)N[C@@H](CCCNC(=N)N)C(=O)N[C@@H](CCCNC(=N)N)C(=O)N[C@@H](CCCNC(=N)N)C(=O)N[C@@H](CCCNC(=N)N)C(=O)N[C@H](C(=O)N[C@@H](CC(C)C)C(=O)N[C@H](C(=O)N[C@@H](CCCCN)C(=O)N[C@@H](CCCCN)C(=O)N[C@H](C(=O)N[C@@H](CC(C)C)C(=O)N[C@@H](CCCCN)C(=O)N[C@@H](CC(C)C)C(=O)N[C@@H](CCCCN)C(=O)N[C@@H](CO)C(=O)N[C@@H](CO)C(=O)N[C@@H](C)C(=O)N[C@@H](Cc1ccc(O)cc1)C(N)=O)C(C)C)[C@@H](C)CC)[C@@H](C)CC	broth microdilution	ATCC 29213	highest value reported	64 µM
Cc1ccc2[nH]c3c(c2c1)CCCC3NCCc1ccc(Br)cc1 (stereo not drawn)	broth microdilution	–	–	4 µg/mL
CC[C@H](C)[C@H](NC(=O)[C@H](CC(C)C)NC(=O)[C@H](CCCNC(=N)N)NC(=O)[C@@H](N)CCCNC(=N)N)C(=O)N[C@@H](CCCNC(=N)N)C(=O)N[C@@H](CCCCN)C(=O)N[C@@H](CC(C)C)C(=O)N[C@@H](CCCCN)C(=O)NCC(=O)N1CCC[C@H]1C(=O)N[C@@H](CCCCN)C(=O)N[C@H](C(=O)N[C@@H](Cc1ccc(O)cc1)C(=O)N[C@@H](CC(C)C)C(=O)N[C@@H](Cc1ccc(O)cc1)C(=O)N[C@@H](Cc1ccccc1)C(=O)N[C@@H](CCCCN)C(=O)N[C@@H](CC(C)C)C(=O)N[C@@H](CCC(N)=O)C(=O)N[C@@H](CC(C)C)C(=O)N[C@@H](CC(C)C)C(=O)N[C@@H](CCCCN)C(=O)N[C@@H](CCCCN)C(N)=O)[C@@H](C)CC	–	CCARM 3095, methicillin-resistant, Mueller-Hinton broth	24 h	16 µM
CC(C)C[C@@H](NC(=O)[C@H](C)NC(=O)CNC(=O)[C@@H](NC=O)C(C)C)C(=O)N[C@@H](C)C(=O)N[C@@H](C(=O)N[C@H](C(=O)N[C@@H](C(=O)N[C@@H](Cc1c[nH]c2ccccc12)C(=O)N[C@H](CC(C)C)C(=O)N[C@@H](Cc1ccc2[nH]ccc2c1)C(=O)N[C@H](CC(C)C)C(=O)N[C@@H](Cc1c[nH]c2ccccc12)C(=O)N[C@@H](C(=O)N[C@@H](Cc1c[nH]c2ccccc12)C(=O)NCCO)C(C)C)[C@H](C)O)C(C)C)C(C)C	broth microdilution	MSSA1, methicillin-susceptible	–	8.6 µM
CC[C@H](C)[C@H](NC(=O)CN)C(=O)N[C@@H](C)C(=O)N[C@@H](CCCCN)C(=O)N[C@@H](C)C(=O)N[C@H](C(=O)N[C@@H](CCCCN)C(=O)N[C@@H](CCCCN)C(=O)N[C@H](C(=O)N[C@@H](C)C(=O)N[C@@H](CCCCN)C(=O)N[C@@H](C)C(=O)N[C@@H](CC(C)C)C(=O)NCC(N)=O)[C@@H](C)CC)[C@@H](C)CC	–	ATCC 29213, Mueller-Hinton broth	12 h, 37 °C	2 µg/mL
CC[C@H](C)[C@H](N)C(=O)N[C@@H](CC(C)C)C(=O)NCC(=O)N[C@@H](CCC(=O)O)C(=O)N[C@H](C(=O)N[C@@H](Cc1c[nH]c2ccccc12)C(=O)N[C@@H](CCCCN)C(=O)NCC(=O)N[C@H](C(=O)N[C@@H](CCCCN)C(=O)N[C@@H](CC(=O)O)C(=O)N[C@H](C(=O)N[C@@H](CC(C)C)C(N)=O)[C@@H](C)CC)[C@@H](C)CC)[C@@H](C)CC	broth microdilution	MRSA ATCC 33591, Mueller-Hinton broth	16 h, 37 °C	> 100 µM
C/C(=C\C(=O)OCCCCCCCCC(=O)O)C[C@@H]1OC[C@H](C[C@@H]2O[C@H]2[C@@H](C)[C@H](C)O)[C@@H](O)[C@H]1O	–	mecA−, antibiotic-susceptible	–	1 µg/mL
CC[C@H](C)[C@H](NC(=O)[C@H](Cc1ccc(O)cc1)NC(=O)[C@@H](NC(=O)[C@H](Cc1c[nH]c2ccccc12)NC(=O)[C@@H]1CCCN1C(=O)[C@@H](NC(=O)[C@H](C)N)[C@@H](C)CC)[C@@H](C)CC)C(=O)N[C@@H](Cc1ccc(O)cc1)C(=O)N[C@@H](CCCNC(=N)N)C(=O)N[C@@H](CC(C)C)C(=O)N[C@@H](CC(C)C)C(=O)N[C@@H](CCCNC(=N)N)C(=O)N[C@@H](CCCCN)C(=O)NCC(=O)O	broth microdilution	ATCC 35556	18 h, 37 °C	3.75 µM
CC[C@H](C)[C@H](NC(=O)[C@H](CC(C)C)NC(=O)[C@H](CCCCN)NC(=O)[C@@H](NC(=O)[C@H](C)NC(=O)[C@H](CCC(=O)O)NC(=O)[C@H](Cc1c[nH]cn1)NC(=O)[C@@H](NC(=O)[C@H](CCCCN)NC(=O)[C@H](CCC(N)=O)NC(=O)[C@H](Cc1ccccc1)NC(=O)[C@@H](NC(=O)[C@H](CCCCN)NC(=O)[C@@H](N)CCCCN)C(C)C)[C@@H](C)CC)[C@@H](C)CC)C(N)=O	broth microdilution	MW2 resistant	18 h, 37 °C	32 µM
CCCCCCC#Cc1cncc(-c2nnc(SCc3ccc([N+](=O)[O-])o3)n2CCCN)c1	broth microdilution	Mu50 MRSA VISA	18 to 24 h, 37 °C	> 64 µg/mL
N=C(N)NCCC[C@H](NC(=O)[C@@H](N)CCCNC(=N)N)C(=O)N[C@@H](Cc1c[nH]c2ccccc12)C(=O)N[C@@H](Cc1c[nH]c2ccccc12)C(=O)N[C@@H](Cc1ccccc1)C(=O)N[C@@H](CCC(N)=O)C(=O)N[C@@H](Cc1ccccc1)C(=O)N[C@@H](CCC(N)=O)C(=O)N[C@@H](Cc1ccccc1)C(=O)N[C@@H](CCCCN)C(N)=O	broth microdilution, optical density	ATCC 25923	–	570 µM

Repeated from above:
SMILES	test	test system	setting	MIC
CC[C@H](C)[C@H](NC(=O)[C@H](CC(C)C)NC(=O)[C@H](CCCCN)NC(=O)[C@@H](NC(=O)[C@H](C)NC(=O)[C@H](CCC(=O)O)NC(=O)[C@H](Cc1c[nH]cn1)NC(=O)[C@@H](NC(=O)[C@H](CCCCN)NC(=O)[C@H](CCC(N)=O)NC(=O)[C@H](Cc1ccccc1)NC(=O)[C@@H](NC(=O)[C@H](CCCCN)NC(=O)[C@@H](N)CCCCN)C(C)C)[C@@H](C)CC)[C@@H](C)CC)C(N)=O	broth microdilution	MW2 resistant	18 h, 37 °C	32 µM
CC(C)C[C@@H](NC(=O)[C@H](C)NC(=O)CNC(=O)[C@@H](NC=O)C(C)C)C(=O)N[C@@H](C)C(=O)N[C@@H](C(=O)N[C@H](C(=O)N[C@@H](C(=O)N[C@@H](Cc1c[nH]c2ccccc12)C(=O)N[C@H](CC(C)C)C(=O)N[C@@H](Cc1ccc2[nH]ccc2c1)C(=O)N[C@H](CC(C)C)C(=O)N[C@@H](Cc1c[nH]c2ccccc12)C(=O)N[C@@H](C(=O)N[C@@H](Cc1c[nH]c2ccccc12)C(=O)NCCO)C(C)C)[C@H](C)O)C(C)C)C(C)C	broth microdilution	MSSA1, methicillin-susceptible	–	8.6 µM
